Results of several laboratories.
“And” joins repeats or separate records; there may be more than shown. Numbers after ± are the reported error.

For `COc1cccc(-c2n[nH]c(SCc3ccccn3)n2)c1OC`, the AUC(0-t) was 183000 ng·h/mL (Sprague-Dawley rats, male, plasma; oral gavage, 100 mg/kg, single dose).
`O=C1c2ccncc2C(=O)c2c1[nH]c1ccccc21` has an AUC(0-t) of 5.31 ± 2.79 µM·h (Sprague-Dawley rat female, plasma; intravenous, 5 mg/kg).
The AUC(0-t) of `Cc1ccc(S(=O)(=O)n2cc3c4c2C(=O)C(NCc2ccc(Cl)cc2)=CC4=NCC3)cc1` is reported as 1770 ng·h/mL and 2060 ng·h/mL (Sprague-Dawley rat, plasma; intravenous, 5 mg/kg, individual rat).
`Cc1cccc(CNC(=O)c2cn(CCNC(=O)c3ccccc3S)c3cc4c(cc3c2=O)OC(F)(F)O4)n1` has an AUC(0-t) of 3040 ± 350 ng·h/mL (Sprague-Dawley rat, male, whole blood; intravenous, 5 mg/kg of parent compound).
`CN1CCC[C@H](CN2c3ccccc3Sc3ccccc32)C1.Cl` gave an AUC(0-t) of 13100 ng·h/mL (Wistar rat female, heart; oral, 16 mg/kg).
`CCCCCOC(=O)Nc1nc(=O)n([C@@H]2O[C@H](C)[C@@H](O)[C@H]2O)cc1F` has an AUC(0-t) of 12200 ± 1100 ng·h/mL (Sprague-Dawley rat, plasma; oral, 200 mg/kg, together with: chitooligosaccharide 20 min before glucosamine 250 mg/kg).
The AUC(0-t) of `Cc1nccn1CC1CCc2c(c3ccccc3n2C)C1=O` (centres unmarked) is reported as 2680 ng·h/mL (male Sprague Dawley rat, plasma; iv bolus, 5 mg/kg, together with: tariquidar 15 mg/kg iv, 1 h before).
The AUC(0-t) of `C=CC(=O)N1CCC(Oc2cc3c(Nc4ccc(Cl)c(Cl)c4F)ncnc3cc2OC)CC1` is reported as 6020 ± 1560 ng·h/mL (male Sprague-Dawley rats, plasma; oral, 2 mg/kg, together with: schisandrin B pretreatment 20 mg/kg daily 1 week).
`Cc1cccc(CNC(=O)c2cn(CCNC(=O)c3ccccc3Sc3c([N+](=O)[O-])ncn3C)c3cc4c(cc3c2=O)OC(F)(F)O4)n1` has an AUC(0-t) of 1640 ± 60.6 ng·h/mL (Sprague-Dawley rat, male, plasma; intravenous, 20 mg/kg of parent drug).
For `CC(=O)CC(c1ccccc1)c1c(O)c2ccccc2oc1=O` (centres unmarked), the AUC(0-t) was 29300 ± 2210 ng·h/mL (Sprague-Dawley rats, male, plasma; oral, 0.3 mg/kg/day, 1 week, without PNS).
For `CSc1ccccc1C(=O)NCCn1cc(C(=O)NCc2cccc(C)n2)c(=O)c2cc3c(cc21)OC(F)(F)O3`, the AUC(0-t) was 40.1 ± 10.6 ng·h/mL (Sprague-Dawley rat, male, whole blood; intramuscular, 3 mg/kg of parent compound).
For `O=C1C[C@@H](c2ccc(O)cc2)Oc2cc(O)cc(O)c21`, the AUC(0-t) was 25300 ± 2190 ng·h/mL (Sprague-Dawley rat, plasma; intravenous bolus, 1 mg/kg).
For `Nc1nc(O)c2ncn(COC(CO)CO)c2n1`, the AUC(0-t) was 520 ± 82.5 ng·h/mL (Sprague-Dawley rat male; oral, 10 mg/kg).
The AUC(0-t) of `C1=C/COCc2cc(ccc2OCCN2CCCC2)Nc2nccc(n2)-c2cccc(c2)COC/1` is reported as 3840 ± 2190 ng·h/mL (LC-MS/MS; Sprague-Dawley rat, male, plasma; oral, 36 mg/kg, together with: voriconazole 30 mg/kg oral).
